Published values of several laboratories.
Lines come from different studies, so protocols differ. ± gives the spread as reported.
MMP9: Matrix metalloproteinase-9 (MMP9, Homo sapiens, UniProt P14780)
Sequence of UniProt P14780 (whole entry, looked up): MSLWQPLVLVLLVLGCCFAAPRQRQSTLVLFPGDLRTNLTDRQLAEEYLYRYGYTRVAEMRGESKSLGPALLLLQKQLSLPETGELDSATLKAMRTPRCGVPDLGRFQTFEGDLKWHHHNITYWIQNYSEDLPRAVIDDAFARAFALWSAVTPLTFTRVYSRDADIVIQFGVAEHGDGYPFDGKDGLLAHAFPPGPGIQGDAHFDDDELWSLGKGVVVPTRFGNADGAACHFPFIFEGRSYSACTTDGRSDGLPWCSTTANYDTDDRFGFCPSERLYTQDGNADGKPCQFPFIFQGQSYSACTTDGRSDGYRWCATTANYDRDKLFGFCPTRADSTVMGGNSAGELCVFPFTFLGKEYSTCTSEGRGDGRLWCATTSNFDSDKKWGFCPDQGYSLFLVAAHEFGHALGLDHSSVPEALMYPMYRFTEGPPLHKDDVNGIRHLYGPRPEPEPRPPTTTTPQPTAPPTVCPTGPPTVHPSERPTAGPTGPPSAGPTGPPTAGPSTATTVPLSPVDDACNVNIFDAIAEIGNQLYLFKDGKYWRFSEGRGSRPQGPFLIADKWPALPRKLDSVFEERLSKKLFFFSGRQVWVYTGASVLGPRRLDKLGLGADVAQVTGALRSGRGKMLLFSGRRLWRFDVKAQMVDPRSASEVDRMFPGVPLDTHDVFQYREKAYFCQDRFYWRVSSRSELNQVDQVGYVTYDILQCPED
PPO3: PPO3 (Agaricus bisporus, UniProt C7FF04)
Sequence of UniProt C7FF04 (whole entry, looked up): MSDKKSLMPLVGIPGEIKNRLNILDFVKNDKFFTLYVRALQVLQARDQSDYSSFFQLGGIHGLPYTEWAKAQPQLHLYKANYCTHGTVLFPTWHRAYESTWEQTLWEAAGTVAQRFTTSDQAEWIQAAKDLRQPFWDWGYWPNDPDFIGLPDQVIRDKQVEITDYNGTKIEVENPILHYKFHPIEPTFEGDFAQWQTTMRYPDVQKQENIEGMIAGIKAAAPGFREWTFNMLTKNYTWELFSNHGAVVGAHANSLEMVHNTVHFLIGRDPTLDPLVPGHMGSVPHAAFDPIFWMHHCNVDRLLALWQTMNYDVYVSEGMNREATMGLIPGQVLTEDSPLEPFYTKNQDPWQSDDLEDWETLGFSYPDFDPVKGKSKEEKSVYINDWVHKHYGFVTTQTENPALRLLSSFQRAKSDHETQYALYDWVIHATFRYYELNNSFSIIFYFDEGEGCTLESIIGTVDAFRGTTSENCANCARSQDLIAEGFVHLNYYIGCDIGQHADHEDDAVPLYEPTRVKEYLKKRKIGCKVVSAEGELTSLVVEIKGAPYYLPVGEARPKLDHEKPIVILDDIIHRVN
Proteasome subunit alpha type-2/Proteasome subunit alpha type-6 20S proteasome: Proteasome subunit alpha type-2/Proteasome subunit alpha type-6, 20S proteasome (Homo sapiens, UniProt P25787+P60900)
Sequence of UniProt P25787 (whole entry, looked up): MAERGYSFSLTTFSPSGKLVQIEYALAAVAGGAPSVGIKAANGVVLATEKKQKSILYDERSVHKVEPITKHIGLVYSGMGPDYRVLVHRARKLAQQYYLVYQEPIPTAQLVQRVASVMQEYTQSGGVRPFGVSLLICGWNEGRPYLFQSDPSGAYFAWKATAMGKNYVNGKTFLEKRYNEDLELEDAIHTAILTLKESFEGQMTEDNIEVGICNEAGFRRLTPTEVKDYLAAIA
Sequence of UniProt P60900 (whole entry, looked up): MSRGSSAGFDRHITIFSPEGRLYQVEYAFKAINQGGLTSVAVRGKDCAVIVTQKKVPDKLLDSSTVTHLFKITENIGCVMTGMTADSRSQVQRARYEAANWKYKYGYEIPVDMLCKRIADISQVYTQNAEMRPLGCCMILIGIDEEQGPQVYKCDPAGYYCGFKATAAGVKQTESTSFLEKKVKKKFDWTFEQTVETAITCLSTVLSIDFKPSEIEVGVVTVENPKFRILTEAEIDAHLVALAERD
T1: DNA G4 pilE G-quadruplex (Neisseria gonorrhoeae); GGGTGGGTTGGGTGGG
T2: DNA hairpin, 8 bp stem, HEG linker; GTTATATCTTGATATAAC
T3: DNA hairpin, hairpin, TTTT loop; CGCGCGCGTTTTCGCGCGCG
T4: dsDNA, hairpin; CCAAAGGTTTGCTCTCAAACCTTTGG
Sequence of UniProt Q13951 (whole entry, looked up): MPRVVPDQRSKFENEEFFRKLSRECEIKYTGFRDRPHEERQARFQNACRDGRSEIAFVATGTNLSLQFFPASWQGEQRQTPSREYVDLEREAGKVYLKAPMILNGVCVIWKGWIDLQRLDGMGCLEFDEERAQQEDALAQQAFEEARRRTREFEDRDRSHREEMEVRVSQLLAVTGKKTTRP
Sequence of UniProt P40337 (whole entry, looked up): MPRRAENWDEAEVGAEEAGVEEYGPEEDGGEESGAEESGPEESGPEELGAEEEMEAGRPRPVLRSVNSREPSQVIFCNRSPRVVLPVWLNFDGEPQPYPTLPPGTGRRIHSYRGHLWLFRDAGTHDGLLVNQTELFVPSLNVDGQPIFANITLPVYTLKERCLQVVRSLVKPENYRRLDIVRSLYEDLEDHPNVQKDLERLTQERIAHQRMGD
Sequence of UniProt P54756 (whole entry, unmodified, looked up): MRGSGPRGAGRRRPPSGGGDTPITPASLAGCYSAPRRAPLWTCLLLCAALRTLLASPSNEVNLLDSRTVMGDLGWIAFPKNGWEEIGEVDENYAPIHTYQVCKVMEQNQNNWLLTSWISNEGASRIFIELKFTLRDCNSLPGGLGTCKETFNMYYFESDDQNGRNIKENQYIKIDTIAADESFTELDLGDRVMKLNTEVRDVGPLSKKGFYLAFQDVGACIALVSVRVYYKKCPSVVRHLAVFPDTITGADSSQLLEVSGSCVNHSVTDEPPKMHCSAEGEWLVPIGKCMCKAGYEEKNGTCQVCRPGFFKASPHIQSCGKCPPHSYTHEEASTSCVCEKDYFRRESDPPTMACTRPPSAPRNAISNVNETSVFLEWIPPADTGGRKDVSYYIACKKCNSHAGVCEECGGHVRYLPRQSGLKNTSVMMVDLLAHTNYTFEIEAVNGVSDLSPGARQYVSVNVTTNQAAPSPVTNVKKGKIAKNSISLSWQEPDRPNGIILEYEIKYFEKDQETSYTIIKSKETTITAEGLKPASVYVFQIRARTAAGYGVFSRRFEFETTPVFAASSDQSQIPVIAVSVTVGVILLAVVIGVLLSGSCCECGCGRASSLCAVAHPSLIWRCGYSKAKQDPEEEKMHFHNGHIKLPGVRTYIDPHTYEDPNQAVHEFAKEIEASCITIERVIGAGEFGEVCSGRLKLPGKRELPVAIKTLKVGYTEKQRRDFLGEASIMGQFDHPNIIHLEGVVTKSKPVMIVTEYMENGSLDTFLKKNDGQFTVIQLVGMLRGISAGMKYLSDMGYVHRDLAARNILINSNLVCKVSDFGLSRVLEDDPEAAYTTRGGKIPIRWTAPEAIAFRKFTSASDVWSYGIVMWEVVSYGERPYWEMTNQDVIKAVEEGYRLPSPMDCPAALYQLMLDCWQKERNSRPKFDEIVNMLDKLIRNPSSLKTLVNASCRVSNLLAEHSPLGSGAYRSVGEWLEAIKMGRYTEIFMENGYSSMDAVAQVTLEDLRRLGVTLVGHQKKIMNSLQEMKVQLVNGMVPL
Sequence of UniProt Q9UH17 (whole entry, looked up): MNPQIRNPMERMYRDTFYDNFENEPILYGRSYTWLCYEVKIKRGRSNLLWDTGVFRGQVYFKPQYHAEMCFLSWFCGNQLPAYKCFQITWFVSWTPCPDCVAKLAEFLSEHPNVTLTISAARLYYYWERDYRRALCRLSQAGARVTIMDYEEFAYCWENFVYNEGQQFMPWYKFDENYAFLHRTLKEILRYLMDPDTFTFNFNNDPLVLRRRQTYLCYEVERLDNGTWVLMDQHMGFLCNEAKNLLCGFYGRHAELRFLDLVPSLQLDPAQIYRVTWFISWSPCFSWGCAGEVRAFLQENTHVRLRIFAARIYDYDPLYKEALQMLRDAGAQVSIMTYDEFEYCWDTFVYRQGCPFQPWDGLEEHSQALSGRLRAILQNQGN
Sequence of UniProt Q04828 (whole entry, looked up): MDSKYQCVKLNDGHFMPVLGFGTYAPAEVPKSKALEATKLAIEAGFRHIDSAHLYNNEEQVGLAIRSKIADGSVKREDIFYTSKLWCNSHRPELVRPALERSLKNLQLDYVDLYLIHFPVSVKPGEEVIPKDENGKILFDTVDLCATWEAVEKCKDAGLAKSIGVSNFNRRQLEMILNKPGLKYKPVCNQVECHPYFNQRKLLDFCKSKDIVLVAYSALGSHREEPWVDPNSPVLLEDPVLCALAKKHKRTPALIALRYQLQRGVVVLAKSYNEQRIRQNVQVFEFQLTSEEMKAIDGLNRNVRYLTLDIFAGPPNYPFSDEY
Sequence of UniProt P25814 (whole entry, looked up): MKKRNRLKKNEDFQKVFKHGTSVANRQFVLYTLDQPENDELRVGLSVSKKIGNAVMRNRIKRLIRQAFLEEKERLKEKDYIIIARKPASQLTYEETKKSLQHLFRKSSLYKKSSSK

target	test	test system	conditions	scale	quantity	value	SMILES
Core-binding factor subunit beta, with RUNX1 Runt domain (Homo sapiens, UniProt Q13951)	protein binding, inhibitor, FRET	–	concentration not given, with: Runt domain	–	activity class	inactive	COc1ccc2[nH]c(-c3cccc(C)n3)nc2c1
Carboxylesterase 3 (CES3, Homo sapiens, UniProt Q6UWW8)	substrate	–	50 µM, pH 8, 37 °C, enzyme purity 3%	–	specific activity	< 1 pmol/min/µg	COc1ccc(NC(=O)CCCc2ccccc2)c(C)n1
T1, DNA G4 pilE G-quadruplex (Neisseria gonorrhoeae)	fluorescence titration	–	pH 7.4, K+ 100 mM	–	Kd	2.79 µM	CC1=N/C(=C\c2ccc3cc(N(C)C)ccc3c2)C(=O)N1C
MMP9	cleavage, substrate	–	concentration not given, 24 h, 37 °C	–	fluorescence activation	35%	C=Cc1c(C)c2cc3nc(c4c5[nH]c(cc6nc(cc1[nH]2)C(C)=C6CC)c(C)c5C(=O)C4)[C@@H](CCC(=O)NCC(=O)N1CCC[C@H]1C(=O)N[C@@H](CC(C)C)C(=O)NCC(=O)N[C@@H](Cc1ccccc1)C(=O)N[C@@H](CCCNC(=N)N)C(=O)N[C@H](C(=O)NCC(=O)N[C@@H](CCCCNC(=O)CCCN(C)c1ccc(/N=N/c2ccc4nc5ccc(N(CC)CC)cc5[n+](-c5ccccc5)c4c2)cc1)C(N)=O)C(C)C)[C@@H]3C
T2, DNA hairpin, 8 bp stem, HEG linker	thiazole orange displacement, competitor, fluorescent indicator displacement	–	pH 7.2, KCl 100 mM	–	IC50	> 2.5 µM	O=C(N/N=C/c1ccc(C[n+]2ccccc2)cc1)c1ccc2ccc3ccc(C(=O)N/N=C/c4ccc(C[n+]5ccccc5)cc4)nc3c2n1
Cyclic nucleotide-gated channel alpha-1 (CNGA1, Bos taurus, UniProt Q00194)	ion current, inhibitor, inside-out patch clamp	–	+100 mV, with: cGMP 2 mM	–	Hill coefficient	1.4	CC1=C(/C=C/C(C)=C/C=C/C(C)=C/C=O)C(C)(C)CCC1
PPO3	enzyme activity, inhibitor	–	200 µM	–	remaining activity	49.3%	CC(C)C[C@H](NC(=O)[C@H](CCCNC(=N)N)NC(=O)[C@@H](N)CS)C(=O)N[C@@H](CC(N)=O)C(=O)O
p-hydroxyphenylacetate 3-hydroxylase, reductase component (C1-hpah, Acinetobacter baumannii, UniProt Q6Q271)	ITC	–	pH 7	–	ΔH	-3.03 ± 0.05 kcal/mol	COc1cc(CC(=O)O)ccc1O
uncharacterized protein (Leishmania donovani, UniProt A0A3Q8IA09)	competitive ITC	–	with: glutamate 60 µM	–	ΔH	-16.5 ± 1.2 kcal/mol	COc1cc(C2CC(=O)Nc3nc(N)[nH]c(=O)c32)ccc1O (stereo not drawn)
DNA dC->dU-editing enzyme APOBEC-3B, C-terminal domain (Homo sapiens, UniProt Q9UH17)	binding, 1H CPMG NMR	–	20 µM protein	–	signal attenuation	41.7 ± 1.1%	O=C(c1cccc(-c2cc(NCCO)ncn2)c1)N1CCCC1c1ccccc1 (stereo not drawn)
Proline--tRNA ligase (Plasmodium falciparum, UniProt Q8I5R7)	thermal shift	–	no substrate	–	melting temperature	64.2 °C	Cc1cc(N2CC[C@](C#N)(C3(C)CC3)C2=O)cc(C(=O)NCc2cc(F)cc(-c3cnn(C)c3)c2)n1
Proto-oncogene tyrosine-protein kinase Src (SRC, Homo sapiens, UniProt P12931)	enzyme activity	–	–	–	cis over trans potency ratio	~10 fold	NC(=O)[C@@H]1CCCNC(=O)[C@H](Cc2ccc([N+](=O)[O-])cc2)NC(=O)[C@H](Cc2ccco2)NC(=O)[C@H](CC2CC2)NC(=O)C=CC(=O)N1
Ephrin type-A receptor 5 (EPHA5, Homo sapiens, UniProt P54756)	differential scanning fluorimetry	–	10 µM	higher = stronger binding	thermal shift ΔTm	5.4 K	COc1cc(-c2cnc3nc2NCCCNS(=O)(=O)c2cccc(c2)N3)ccc1F
Rhodopsin, apoprotein (opsin) (RHO, Bos taurus, UniProt P02699)	–	–	pigment regenerated	–	absorption maximum	460 nm	CCC(C)/C=C/C(C)=C\C=C\C(C)=C\C=O (stereo not drawn)
Genome polyprotein, NS4B cytosolic loop (dengue virus type 2, UniProt P29990)	isothermal titration calorimetry	Zika virus	concentration not given	–	binding	no binding	CC1(C)Cc2sc(NC(=O)Cc3ccc(S(N)(=O)=O)cc3)c(C#N)c2CN1CC1CCCCC1
T3, DNA hairpin, hairpin, TTTT loop	BLI	–	pH 7.04, K+ 100 mM	–	Kd	1.41 µM	[Ru+2].[Ru+2].c1cnc2c(c1)c1nc(-c3ccc(OCCOCCOCCOc4ccc(-c5nc6c7cccnc7c7ncccc7c6[nH]5)cc4)cc3)[nH]c1c1cccnc12.c1cnc2c(ccc3nccnc32)n1.c1cnc2c(ccc3nccnc32)n1.c1cnc2c(ccc3nccnc32)n1.c1cnc2c(ccc3nccnc32)n1
Angiotensin-converting enzyme 2 (ACE2, Homo sapiens, UniProt Q9BYF1)	enzyme activity	–	1 h, pH 6.5, with: 7-Mca-YVADAPK(Dnp) 50 µM	–	maximum inhibition	47 ± 3%	CC(=O)NCC(=O)N[C@@H](CC(=O)O)C(=O)N[C@@H](Cc1ccc(O)cc1)C(=O)N[C@@H](CO)C(=O)N[C@@H](Cc1c[nH]cn1)C(=O)N[C@H]1CSSC[C@@H](C(=O)N[C@H](C(=O)N[C@@H](Cc2ccc(O)cc2)C(=O)N2CCC[C@H]2C(=O)N[C@@H](CC(=O)O)C(=O)N2CCC[C@H]2C(=O)N[C@@H](CCC(=O)O)C(=O)NCC(=O)NCC(=O)NCC(N)=O)[C@@H](C)O)NC(=O)[C@H](CCCCN)NC(=O)[C@H](Cc2c[nH]c3ccccc23)NC(=O)[C@H](Cc2c[nH]c3ccccc23)NC(=O)[C@@H]2CCCN2C(=O)[C@H](Cc2ccc(O)cc2)NC(=O)[C@H](Cc2ccc(O)cc2)NC(=O)[C@H](CCCNC(=N)N)NC(=O)[C@H](CC(C)C)NC(=O)[C@@H]2CCCN2C(=O)[C@H](CO)NC1=O
NACHT, LRR and PYD domains-containing protein 3 (NLRP3, Homo sapiens, UniProt Q96P20)	enzyme activity, inhibitor	–	0.1 to 1 µM	–	ATPase activity	inhibited	O=C(O)c1ccc(/C=C2\SC(=S)N(Cc3cccc(C(F)(F)F)c3)C2=O)cc1

target	test	test system	conditions	scale	quantity	value	SMILES
Flap endonuclease 1 (Homo sapiens, UniProt P39748)	inhibitor	–	mixed inhibition, with: double-flap substrate DF1	–	Kiu	306 ± 125 nM	O=c1c2ccccc2n(CC2CC2)c(=O)n1O
T4, dsDNA, hairpin	SPR	–	pH 7.4, 25 °C, Na+ 100 mM, mass transfer limited	–	Kd	0.002 µM	CC(C)n1c(-c2ccc(-c3ccc(C(=N)N)cc3)s2)nc2cc3nc(-c4ccc(-c5ccc(C(=N)N)cc5)s4)n(C(C)C)c3cc21
Luc-ODC reporter	inhibitor, cycloheximide chase luciferase	human cells	concentration not given	–	protein degradation	no effect	CCOC(=O)c1ccc(N2NC(=O)/C(=C/c3ccc([N+](=O)[O-])o3)C2=O)cc1
Amyloid-beta precursor protein (APP, Homo sapiens, UniProt P05067)	binding, PET, reference Logan	control subjects, parietal cortex	–	baseline: cerebellum	distribution volume ratio	0.94 ± 0.08	[11CH3]Nc1ccc(-c2nc3ccc(O)cc3o2)cn1
3-oxoacyl-[acyl-carrier-protein] synthase 2 (Pseudomonas aeruginosa, UniProt O54440)	bio-layer interferometry	–	up to 2.5 mM, outcome: no binding	–	binding	no binding	Cc1c(NC(=O)CC(C)C)c(=O)n(-c2ccccc2)n1C
Receptor tyrosine-protein kinase erbB-2 (ERBB2, Homo sapiens, UniProt P04626)	binding, SPR	–	–	–	koff	0.0107 s⁻¹	CC[C@H](C)[C@H](NC(=O)CNC(=O)[C@H](CCCNC(=N)N)NC(=O)[C@H](CCCCN)NC(=O)CNC(=O)[C@H](CC(N)=O)NC(=O)CNC(=O)CNC(=O)CNC(=O)[C@H](CC(C)C)NC(=O)[C@H](C)NC(=O)CNC(=O)[C@H](Cc1c[nH]c2ccccc12)NC(=O)[C@H](Cc1ccc(O)cc1)NC(=O)CNC(=O)[C@H](CCCNC(=N)N)NC(=O)[C@H](CCSC)NC(=O)CNC(=O)[C@H](CCCCN)NC(=O)[C@H](CC(N)=O)NC(=O)[C@H](Cc1ccccc1)NC(=O)[C@H](CCCCN)NC(=O)[C@@H](N)CC(N)=O)C(=O)N[C@@H](CCCNC(=N)N)C(=O)NCC(=O)N[C@@H](Cc1ccc(O)cc1)C(=O)N[C@@H](CC(=O)O)C(=O)O
MMP9	substrate, HPLC	–	500 µM, 72 h, pH 7.5, 37 °C	–	hydrolysis product	100%	CC(C)C[C@H](NC(=O)CNC(=O)[C@H](CC(C)C)NC(=O)[C@@H]1CCCN1C(=O)CNC(=O)[C@H](Cc1ccccc1)NC(=O)[C@@H](N)Cc1ccccc1)C(=O)N[C@@H](CCCNC(=N)N)C(=O)N[C@@H](CO)C(=O)N[C@@H](CCCCN)C(=O)O
Fab B11 antibody (human)	binding, biolayer interferometry	–	–	baseline: alanine mutant over wild type	Kd ratio	4.2	CC[C@H](C)[C@H](NC(=O)[C@H](CCCCN)NC(=O)[C@H](CCCCN)NC(=O)[C@@H](NC(=O)[C@H](CCC(=O)O)NC(=O)[C@H](CCC(=O)O)NC(=O)[C@H](C)NC(=O)[C@H](CO)NC(=O)[C@H](CC(C)C)NC(=O)[C@H](CC(=O)O)NC(=O)[C@H](CC(C)C)NC(=O)CNC(=O)[C@H](CCCNC(=N)N)NC(=O)[C@H](CC(C)C)NC(=O)[C@H](CO)NC(=O)CNC(=O)CNC(=O)CNC(=O)CCCC[C@@H]1SC[C@@H]2NC(=O)N[C@@H]21)C(C)C)C(=O)N[C@@H](CC(C)C)C(=O)N[C@@H](CC(=O)O)C(=O)N[C@@H](CCC(=O)O)C(=O)N[C@H](C(=O)N[C@H](C(=O)N[C@@H](CCCCN)C(=O)N[C@@H](CC(=O)O)C(=O)O)C(C)C)[C@@H](C)CC
Proteasome subunit alpha type-2/Proteasome subunit alpha type-6 20S proteasome	proteolysis, activator, fluorogenic peptide	purified 20S proteasome	with: Suc-LLVY-AMC, Z-LLE-AMC, Boc-LRR-AMC	–	EC200	> 30 µM	CN(C)CC(=O)N(c1ccc(F)cc1)c1ccc(F)cc1
Ribonuclease P protein component (rnpA, Bacillus subtilis, UniProt P25814)	enzyme activity, inhibitor	–	37 °C, with: Fl-pre-tRNA^Asp	–	Hill coefficient on kcat	0.9 ± 0.1	CC(=O)Oc1cc(-c2coc3cc(OC(C)=O)c(OC(C)=O)c(OC(C)=O)c3c2=O)cc(OC(C)=O)c1OC(C)=O
Sodium channel protein type 4 subunit alpha (SCN4A, Homo sapiens, UniProt P35499, F1586C)	phasic block of sodium current, whole-cell patch clamp	HEK293	10 Hz stimulation	–	Hill coefficient	1.2 ± 0.2	Cc1cccc(C)c1NC(=O)CC(C)NCc1cccc2ccccc12 (stereo not drawn)
Prostaglandin G/H synthase 1 (Canis lupus familiaris, UniProt Q8HZR1)	TXB2 formation, inhibitor	clotting dog whole blood	1 h, 37 °C	–	IC80	> 500 µM	NS(=O)(=O)c1ccc(N2N=C(C(F)(F)F)C(O)C2c2ccc(F)cc2F)cc1 (stereo not drawn)
Aldo-keto reductase family 1 member C1 (AKR1C1, Homo sapiens, UniProt Q04828)	enzyme activity, inhibitor, absorbance	–	100 µM, pH 9	–	inhibition	9.8%	C[C@]12CCC[C@H]1[C@@H]1CCc3c(cc(I)c(O)c3I)[C@H]1CC2
VHL/BRD3, BD2; with Elongin B/C (Homo sapiens, UniProt P40337+Q15059)	ITC	–	25 °C, ternary complex with VCB, BRD3 BD2	baseline: binary Kd over ternary Kd	cooperativity	11	Cc1ncsc1-c1ccc(CNC(=O)[C@@H]2C[C@@H](O)CN2C(=O)[C@@H](NC(=O)COCCOCCOCCNC(=O)C[C@@H]2N=C(c3ccc(Cl)cc3)c3c(sc(C)c3C)-n3c(C)nnc32)C(C)(C)C)cc1
Bromodomain-containing protein 4, short isoform (BRD4, Homo sapiens, UniProt O60885)	degrader, immunoblotting, refers to: BRD4 short isoform	PC-3	100 nM, 24 h	–	degradation	95%	Cc1ncsc1-c1ccc([C@@H]2CCCCCCNC(=O)C[C@@H]3N=C(c4ccc(cc4)OCCCCC(=O)N[C@@H](C(C)(C)C)C(=O)N4C[C@H](O)C[C@H]4C(=O)N2)c2c(sc(C)c2C)-n2c(C)nnc23)cc1
PPO3	enzyme activity, inhibitor	–	100 µM	–	remaining activity	59.5%	CC(C)C[C@H](NC(=O)[C@H](CC(C)C)NC(=O)[C@H](CCC(=O)O)NC(=O)[C@@H](N)CS)C(=O)O
Proteasome subunit alpha type-2/Proteasome subunit alpha type-6 20S proteasome	proteolysis, activator, fluorogenic peptide	purified 20S proteasome	up to 30 µM, with: Suc-LLVY-AMC, Z-LLE-AMC, Boc-LRR-AMC	baseline: vehicle	maximum fold increase	5.1 ± 0.9	O=C(CN1CCOc2ccccc21)N(c1ccc(F)cc1)c1ccc(F)cc1
Putative neuropeptide Y receptor 11 (npr-11, Caenorhabditis elegans, UniProt Q18179)	agonist, cAMP reporter gene	–	concentration not given	–	receptor activation	inactive	CC(C)C[C@H](NC(=O)CN)C(=O)NCC(=O)N1CCC[C@H]1C(=O)N[C@@H](CCCNC(=N)N)C(=O)N1CCC[C@H]1C(=O)N[C@@H](CC(C)C)C(=O)N[C@@H](CCCNC(=N)N)C(=O)N[C@@H](Cc1ccccc1)C(=O)O

For quick reference, copied from above:
target	test	test system	conditions	scale	quantity	value	SMILES
T3, DNA hairpin, hairpin, TTTT loop	BLI	–	pH 7.04, K+ 100 mM	–	Kd	1.41 µM	[Ru+2].[Ru+2].c1cnc2c(c1)c1nc(-c3ccc(OCCOCCOCCOc4ccc(-c5nc6c7cccnc7c7ncccc7c6[nH]5)cc4)cc3)[nH]c1c1cccnc12.c1cnc2c(ccc3nccnc32)n1.c1cnc2c(ccc3nccnc32)n1.c1cnc2c(ccc3nccnc32)n1.c1cnc2c(ccc3nccnc32)n1
Rhodopsin, apoprotein (opsin) (RHO, Bos taurus, UniProt P02699)	–	–	pigment regenerated	–	absorption maximum	460 nm	CCC(C)/C=C/C(C)=C\C=C\C(C)=C\C=O (stereo not drawn)
